Measured values pooled from the literature.
Parts stem from different laboratories: compare values within a part only. Values joined by “and” are separate records of one study, mostly repeats; a detail may differ.
Chain of UniProt P53671 (whole entry, looked up): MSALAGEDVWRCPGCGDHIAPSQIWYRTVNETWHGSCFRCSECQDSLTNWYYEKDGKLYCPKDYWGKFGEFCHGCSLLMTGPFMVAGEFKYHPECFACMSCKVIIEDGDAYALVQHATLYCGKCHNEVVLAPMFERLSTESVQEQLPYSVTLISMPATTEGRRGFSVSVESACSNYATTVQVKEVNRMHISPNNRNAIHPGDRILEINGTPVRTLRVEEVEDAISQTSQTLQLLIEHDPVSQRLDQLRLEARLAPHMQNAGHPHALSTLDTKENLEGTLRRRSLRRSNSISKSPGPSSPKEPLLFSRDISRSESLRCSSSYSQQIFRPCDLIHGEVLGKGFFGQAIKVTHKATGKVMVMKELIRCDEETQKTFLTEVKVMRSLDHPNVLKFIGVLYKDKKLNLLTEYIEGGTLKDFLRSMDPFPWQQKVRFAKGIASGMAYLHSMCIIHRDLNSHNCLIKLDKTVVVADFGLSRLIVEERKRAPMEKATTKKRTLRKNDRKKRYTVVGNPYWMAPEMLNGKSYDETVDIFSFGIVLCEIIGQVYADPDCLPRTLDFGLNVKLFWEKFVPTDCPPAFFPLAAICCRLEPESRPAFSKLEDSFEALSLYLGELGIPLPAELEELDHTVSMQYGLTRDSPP

Study 1
Target: Insulin receptor-related protein (INSRR, Homo sapiens, UniProt P14616)
Chain of UniProt P14616 (whole entry, looked up): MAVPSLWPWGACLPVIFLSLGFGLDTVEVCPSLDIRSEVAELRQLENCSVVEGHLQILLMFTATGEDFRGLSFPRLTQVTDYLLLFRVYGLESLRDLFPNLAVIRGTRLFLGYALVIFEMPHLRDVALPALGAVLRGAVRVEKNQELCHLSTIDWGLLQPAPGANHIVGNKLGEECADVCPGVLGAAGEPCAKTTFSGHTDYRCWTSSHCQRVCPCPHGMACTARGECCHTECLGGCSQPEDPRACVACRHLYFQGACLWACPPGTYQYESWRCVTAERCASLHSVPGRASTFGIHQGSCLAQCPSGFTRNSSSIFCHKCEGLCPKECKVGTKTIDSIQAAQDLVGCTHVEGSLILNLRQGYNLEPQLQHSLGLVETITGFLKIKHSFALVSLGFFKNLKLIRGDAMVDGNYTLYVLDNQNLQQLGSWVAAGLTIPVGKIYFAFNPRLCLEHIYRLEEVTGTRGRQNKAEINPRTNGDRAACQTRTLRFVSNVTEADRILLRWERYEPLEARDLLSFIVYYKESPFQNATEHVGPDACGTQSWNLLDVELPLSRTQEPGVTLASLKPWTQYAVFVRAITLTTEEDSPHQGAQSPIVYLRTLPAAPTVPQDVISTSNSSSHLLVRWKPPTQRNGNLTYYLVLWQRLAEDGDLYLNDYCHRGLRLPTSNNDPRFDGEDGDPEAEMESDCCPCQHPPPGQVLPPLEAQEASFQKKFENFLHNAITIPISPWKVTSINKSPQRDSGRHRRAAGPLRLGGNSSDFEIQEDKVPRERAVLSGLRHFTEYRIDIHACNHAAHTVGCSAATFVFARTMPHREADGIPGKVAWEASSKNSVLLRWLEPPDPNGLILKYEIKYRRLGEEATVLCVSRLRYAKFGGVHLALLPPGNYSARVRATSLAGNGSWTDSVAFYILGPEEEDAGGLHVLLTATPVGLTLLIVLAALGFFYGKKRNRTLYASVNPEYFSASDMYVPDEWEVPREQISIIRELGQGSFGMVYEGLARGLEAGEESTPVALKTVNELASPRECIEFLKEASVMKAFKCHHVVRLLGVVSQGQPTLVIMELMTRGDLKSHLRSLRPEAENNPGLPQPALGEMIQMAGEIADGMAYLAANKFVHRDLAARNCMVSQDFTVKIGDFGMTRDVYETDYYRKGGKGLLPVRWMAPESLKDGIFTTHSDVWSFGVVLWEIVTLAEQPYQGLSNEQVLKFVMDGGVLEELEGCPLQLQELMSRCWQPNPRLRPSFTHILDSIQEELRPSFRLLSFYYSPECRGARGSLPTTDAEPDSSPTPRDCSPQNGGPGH
Read-out: enzyme activity
Action: inhibitor
Concentration: 0.5 µM
Relative to: control
SMILES | remaining activity [%]
O=C(c1cc2cc(O)ccc2[nH]1)c1cc2cc(O)ccc2[nH]1 | 97.1
Cc1ccc(S(=O)(=O)/C=C/C#N)cc1 | 98
c1ccc(-c2n[nH]c3c2oc2ccccc23)cc1 | 104
O=c1cc(N2CCOCC2)oc2c(-c3ccccc3)cccc12 | 97.7
O=C1Nc2ccc(Br)cc2/C1=C/c1cc2c([nH]1)CCCC2 | 94.8
O=C1Nc2ccccc2/C1=C\c1c(Cl)[nH]c2ccccc12 | 93.7
c1ccc2c(-c3ccncc3)c[nH]c2c1 | 101
CCCNC(=O)Nc1ccc(Oc2ncnc3cc(OC)c(OC)cc23)cc1Cl | 98.4
CN1CCN(c2ccc3nc(-c4c(N)c5c(F)cccc5[nH]c4=O)[nH]c3c2)CC1 | 67.1
COc1cccc(-c2cc(=O)c3ccccc3o2)c1N | 98.4
O=C1NC(=O)c2c1c1c3ccccc3[nH]c1n1cncc21 | 20.7
COc1ccc2c(c1)c(C1=C(c3c[nH]c4ccccc34)C(=O)NC1=O)cn2CCCN(C)C | 101
Oc1cccc(-c2nc(N3CCOCC3)c3oc4ncccc4c3n2)c1 | 114
CN(C)S(=O)(=O)c1ccc2c(c1)/C(=C/c1cc3c([nH]1)CCCC3)C(=O)N2 | 93.3
CCCCc1c(-c2ccc(OC)cc2)[nH]c2nccnc12 | 83.2
O=Nc1c(-c2c(O)[nH]c3cc(Br)ccc23)[nH]c2ccccc12 | 81
N#Cc1cnc2cnc(NCc3cccnc3)cc2c1Nc1ccc(F)c(Cl)c1 | 97
O=C1Cc2c([nH]c3ccc(Br)cc23)-c2ccccc2N1 | 95.8

Study 2
Target: DNA polymerase theta, helicase domain (POLQ, Homo sapiens, UniProt O75417)
Chain of UniProt O75417 (whole entry, looked up): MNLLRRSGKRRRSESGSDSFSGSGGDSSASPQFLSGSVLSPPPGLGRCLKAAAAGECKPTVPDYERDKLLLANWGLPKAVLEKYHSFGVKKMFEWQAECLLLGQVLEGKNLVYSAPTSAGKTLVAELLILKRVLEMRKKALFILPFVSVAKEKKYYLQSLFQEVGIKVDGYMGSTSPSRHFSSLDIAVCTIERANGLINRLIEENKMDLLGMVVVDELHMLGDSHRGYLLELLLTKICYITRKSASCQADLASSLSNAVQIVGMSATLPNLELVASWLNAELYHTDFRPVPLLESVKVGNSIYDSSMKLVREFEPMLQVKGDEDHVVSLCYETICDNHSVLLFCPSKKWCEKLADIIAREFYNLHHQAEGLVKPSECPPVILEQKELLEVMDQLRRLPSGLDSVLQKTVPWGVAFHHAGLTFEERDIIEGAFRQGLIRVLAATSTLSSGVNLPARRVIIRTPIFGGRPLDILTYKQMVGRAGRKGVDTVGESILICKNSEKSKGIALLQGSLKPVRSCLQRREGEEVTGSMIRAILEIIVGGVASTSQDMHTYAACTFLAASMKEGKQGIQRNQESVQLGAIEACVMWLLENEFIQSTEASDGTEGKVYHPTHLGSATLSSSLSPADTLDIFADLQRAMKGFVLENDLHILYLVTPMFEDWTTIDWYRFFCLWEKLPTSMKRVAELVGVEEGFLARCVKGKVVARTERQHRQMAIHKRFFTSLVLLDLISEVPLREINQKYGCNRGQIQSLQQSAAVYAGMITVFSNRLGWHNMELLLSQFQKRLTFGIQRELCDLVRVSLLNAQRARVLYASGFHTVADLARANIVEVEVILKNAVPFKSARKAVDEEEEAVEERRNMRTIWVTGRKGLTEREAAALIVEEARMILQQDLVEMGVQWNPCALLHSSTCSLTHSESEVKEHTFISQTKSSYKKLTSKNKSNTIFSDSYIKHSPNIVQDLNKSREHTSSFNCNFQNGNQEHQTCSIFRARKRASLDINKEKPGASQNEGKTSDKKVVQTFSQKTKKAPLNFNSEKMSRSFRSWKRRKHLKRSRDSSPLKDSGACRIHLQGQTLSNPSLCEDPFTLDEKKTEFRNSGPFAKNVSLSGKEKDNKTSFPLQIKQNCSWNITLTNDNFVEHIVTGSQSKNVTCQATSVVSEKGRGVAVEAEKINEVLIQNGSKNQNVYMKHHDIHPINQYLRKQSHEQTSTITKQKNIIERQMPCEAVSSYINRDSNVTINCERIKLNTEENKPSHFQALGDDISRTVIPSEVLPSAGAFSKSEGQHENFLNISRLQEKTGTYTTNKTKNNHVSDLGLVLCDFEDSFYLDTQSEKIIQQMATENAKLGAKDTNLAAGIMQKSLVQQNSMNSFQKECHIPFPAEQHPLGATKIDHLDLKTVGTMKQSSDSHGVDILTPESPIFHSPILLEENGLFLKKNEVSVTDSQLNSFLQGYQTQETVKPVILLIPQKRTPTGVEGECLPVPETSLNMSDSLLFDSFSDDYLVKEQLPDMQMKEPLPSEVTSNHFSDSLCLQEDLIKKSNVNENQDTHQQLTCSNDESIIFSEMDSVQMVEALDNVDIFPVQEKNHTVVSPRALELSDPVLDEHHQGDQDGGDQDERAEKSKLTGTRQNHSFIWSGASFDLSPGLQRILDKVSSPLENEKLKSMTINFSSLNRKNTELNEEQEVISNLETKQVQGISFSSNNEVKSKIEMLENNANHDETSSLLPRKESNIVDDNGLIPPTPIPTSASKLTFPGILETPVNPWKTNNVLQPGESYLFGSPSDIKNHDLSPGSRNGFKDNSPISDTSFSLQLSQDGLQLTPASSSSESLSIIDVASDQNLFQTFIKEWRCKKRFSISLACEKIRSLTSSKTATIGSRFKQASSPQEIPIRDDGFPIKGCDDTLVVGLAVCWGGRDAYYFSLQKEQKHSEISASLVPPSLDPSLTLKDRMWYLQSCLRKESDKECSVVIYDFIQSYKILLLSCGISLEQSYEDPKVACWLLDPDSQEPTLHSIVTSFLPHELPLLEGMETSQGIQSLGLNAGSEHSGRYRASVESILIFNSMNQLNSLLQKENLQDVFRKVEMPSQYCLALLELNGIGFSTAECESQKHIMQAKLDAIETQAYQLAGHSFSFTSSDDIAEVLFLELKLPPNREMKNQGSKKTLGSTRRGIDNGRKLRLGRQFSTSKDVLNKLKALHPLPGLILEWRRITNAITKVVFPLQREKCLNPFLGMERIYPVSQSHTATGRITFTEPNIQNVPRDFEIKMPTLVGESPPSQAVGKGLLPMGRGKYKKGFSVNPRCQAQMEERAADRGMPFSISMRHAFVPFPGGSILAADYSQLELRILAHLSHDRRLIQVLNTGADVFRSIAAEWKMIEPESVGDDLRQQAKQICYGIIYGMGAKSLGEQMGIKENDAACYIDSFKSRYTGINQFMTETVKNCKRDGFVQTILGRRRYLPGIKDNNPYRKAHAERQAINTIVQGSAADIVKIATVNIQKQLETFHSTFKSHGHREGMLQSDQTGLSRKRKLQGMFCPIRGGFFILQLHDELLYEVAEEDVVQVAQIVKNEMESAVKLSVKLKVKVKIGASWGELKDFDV
Action: inhibitor
Concentration: concentration not given
With: without ssDNA
Compound | remaining activity
C/C(O)=C(\C#N)C(=O)Nc1ccc(C(F)(F)F)cc1 | 34.8% and 34.2%
COC(=O)c1cc(Cl)ccc1NC(=O)CSc1ncc(S(=O)(=O)c2ccc(Br)cc2)c(=O)[nH]1 | 90.8% and 89.4%
Cc1ccc(C(=O)Nc2ccccc2C(=O)O)cc1S(=O)(=O)N1CCCCCC1 | 65% and 64.2%
CCOc1nc2cccc(C(=O)OCc3oc(=O)oc3C)c2n1Cc1ccc(-c2ccccc2-c2noc(=O)[nH]2)cc1 | 56.4% and 52.7%

Study 3
Target: Beta-1 adrenergic receptor (ADRB1, Homo sapiens, UniProt P08588)
Chain of UniProt P08588 (whole entry, looked up): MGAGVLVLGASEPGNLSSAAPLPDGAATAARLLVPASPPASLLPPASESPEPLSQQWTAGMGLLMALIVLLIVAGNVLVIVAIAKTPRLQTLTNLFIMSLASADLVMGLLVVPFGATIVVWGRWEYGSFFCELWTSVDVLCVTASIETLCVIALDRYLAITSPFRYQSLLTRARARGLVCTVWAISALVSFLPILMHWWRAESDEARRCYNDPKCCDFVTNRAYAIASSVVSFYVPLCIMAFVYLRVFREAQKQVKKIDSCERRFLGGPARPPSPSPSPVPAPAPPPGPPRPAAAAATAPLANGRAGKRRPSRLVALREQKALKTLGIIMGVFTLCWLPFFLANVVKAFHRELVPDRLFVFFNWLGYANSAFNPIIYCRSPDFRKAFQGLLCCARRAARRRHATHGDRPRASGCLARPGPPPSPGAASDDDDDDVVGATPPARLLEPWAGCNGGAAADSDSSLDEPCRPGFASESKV
Action: antagonist
Structure (SMILES) | IC50 [µM]
O=C(Cn1ncc(=O)c2ccccc21)NCC(O)c1ccc(F)c(F)c1 (centres unmarked) | ≥ 100
CC(C)N(C)C(=O)c1cc(-c2cnc(C(C)(C)C)nc2)nc2cc(F)ccc12 | ≥ 100
CN(c1ccccc1)c1cc(=O)c2ccnc(NCCc3ccccn3)c2o1 | ≥ 100
COCCN1CCOc2nc(-c3cccc(N(C)C)c3)ncc2C1=O | ≥ 100
O=C(Nc1ccccc1)Nc1ccc([C@@H](O)[C@H]2COCC(=O)N2CC2CC2)cc1 | ≥ 100
C=CCn1c(=O)c2cnc(Nc3ccc(N4CCN(C)CC4)cc3)nc2n1-c1cccc(C(C)(C)O)n1 | ≥ 100
O=c1oc2ccc(Br)cc2cc1-c1nc2c(s1)CCc1ccccc1-2 | ≥ 100
c1ccc(-c2ccccc2Nc2cnc3ccc(N4CCOCC4)nn23)cc1 | ≥ 100
CN(C)c1cccc(-c2ncc3c(n2)OCCN(Cc2ccc(F)cc2F)C3=O)c1 | ≥ 100
CC(CNCCc1ccc(O)c(O)c1)Cc1cccc(O)c1 (centres unmarked) | ≥ 100
CCCC(NCC(O)COc1ccc(-c2ccccc2)cc1)c1ccccc1 (centres unmarked) | ≥ 100
COc1ccccc1-c1cc(-c2ccccc2)nc2c(C)noc12 | ≥ 100
Cc1cc(-c2cc3ccccc3o2)nc2ccccc12 | 35.5
CNCc1ccc(CSCCN/C(=N/CC(O)c2ccc(O)cc2)N[S+](C)(=O)[O-])o1 (centres unmarked) | ≥ 100
OC(CNc1ncccn1)c1ccccc1 (centres unmarked) | ≥ 100
Cc1oc(C(O)c2cccc(O)c2)nc1C(=O)NC1CCOCC1 (centres unmarked) | ≥ 100
COC(=O)c1c(OC)cc2c(c1C)Oc1c(Cl)c(O)c(Cl)c(C)c1C(=O)O2 | ≥ 100
Cc1cc(-c2nccc3c(=O)cc(N(C)C)oc23)ccn1 | ≥ 100

Study 4
SMILES: C[C@@H]1CN(c2cc(-c3nn(C)c4ccc(OC5(C)CC5)cc34)ncn2)C[C@H](C)O1
Read-out: cell-free assay
Method: competition with immobilised ligand
Concentration: 1 µM
target | remaining binding [%]
STK36 (Homo sapiens, UniProt Q9NRP7) | 93
PRKD3 (Homo sapiens, UniProt O94806) | 64
MET (Homo sapiens, UniProt P08581, M1250T) | 93
EPHA8 (Homo sapiens, UniProt P29322) | 100
STK16 (Homo sapiens, UniProt O75716) | 100
BMP2K (Homo sapiens, UniProt Q9NSY1) | 100
Non-receptor tyrosine-protein kinase TYK2, JH1 (TYK2, Homo sapiens, UniProt P29597) | 51
MAP3K4 (Homo sapiens, UniProt Q9Y6R4) | 100
CDK13 (Homo sapiens, UniProt Q14004) | 86
LIM domain kinase 2 (LIMK2, Homo sapiens, UniProt P53671) | 92
Ribosomal protein S6 kinase alpha-2, N-terminal kinase domain (RPS6KA2, Homo sapiens, UniProt Q15349) | 88
CHUK (Homo sapiens, UniProt O15111) | 75
EGFR (Homo sapiens, UniProt P00533, del747-750/T751S) | 67
